# Experimental data pooled from the literature.
# Each line is one published result; not all experiments were run side by side. ± gives the spread as reported.
# Ugcg: Ceramide glucosyltransferase (Ugcg, Mus musculus, UniProt O88693)
# UniProt O88693, sequence (whole entry, looked up): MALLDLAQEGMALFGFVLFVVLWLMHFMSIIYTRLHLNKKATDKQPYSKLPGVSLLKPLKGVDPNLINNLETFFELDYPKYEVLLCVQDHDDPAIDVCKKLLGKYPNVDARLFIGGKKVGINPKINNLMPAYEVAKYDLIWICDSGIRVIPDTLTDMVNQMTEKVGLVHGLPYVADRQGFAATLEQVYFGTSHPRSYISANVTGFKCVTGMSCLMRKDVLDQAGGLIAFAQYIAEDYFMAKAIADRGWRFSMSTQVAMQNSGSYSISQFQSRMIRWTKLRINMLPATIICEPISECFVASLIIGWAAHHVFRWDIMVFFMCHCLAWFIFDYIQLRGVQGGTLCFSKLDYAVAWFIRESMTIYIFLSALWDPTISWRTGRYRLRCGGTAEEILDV
# RAD52: DNA repair protein RAD52 homolog (RAD52, Homo sapiens, UniProt P43351)
# UniProt P43351, sequence (whole entry, looked up): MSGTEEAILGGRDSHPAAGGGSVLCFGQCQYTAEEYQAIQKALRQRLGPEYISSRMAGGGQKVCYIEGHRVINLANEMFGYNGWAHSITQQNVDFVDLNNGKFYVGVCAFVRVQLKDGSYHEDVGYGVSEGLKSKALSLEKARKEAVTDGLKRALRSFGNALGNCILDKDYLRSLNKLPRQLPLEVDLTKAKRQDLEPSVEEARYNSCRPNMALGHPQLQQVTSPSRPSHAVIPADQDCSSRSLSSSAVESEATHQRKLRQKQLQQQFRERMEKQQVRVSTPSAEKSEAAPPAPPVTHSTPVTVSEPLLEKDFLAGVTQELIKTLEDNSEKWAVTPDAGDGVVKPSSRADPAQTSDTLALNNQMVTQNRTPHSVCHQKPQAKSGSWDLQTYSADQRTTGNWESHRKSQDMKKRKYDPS
# AR: Androgen receptor (AR, Homo sapiens, UniProt P10275)
# UniProt P10275, sequence (whole entry, looked up): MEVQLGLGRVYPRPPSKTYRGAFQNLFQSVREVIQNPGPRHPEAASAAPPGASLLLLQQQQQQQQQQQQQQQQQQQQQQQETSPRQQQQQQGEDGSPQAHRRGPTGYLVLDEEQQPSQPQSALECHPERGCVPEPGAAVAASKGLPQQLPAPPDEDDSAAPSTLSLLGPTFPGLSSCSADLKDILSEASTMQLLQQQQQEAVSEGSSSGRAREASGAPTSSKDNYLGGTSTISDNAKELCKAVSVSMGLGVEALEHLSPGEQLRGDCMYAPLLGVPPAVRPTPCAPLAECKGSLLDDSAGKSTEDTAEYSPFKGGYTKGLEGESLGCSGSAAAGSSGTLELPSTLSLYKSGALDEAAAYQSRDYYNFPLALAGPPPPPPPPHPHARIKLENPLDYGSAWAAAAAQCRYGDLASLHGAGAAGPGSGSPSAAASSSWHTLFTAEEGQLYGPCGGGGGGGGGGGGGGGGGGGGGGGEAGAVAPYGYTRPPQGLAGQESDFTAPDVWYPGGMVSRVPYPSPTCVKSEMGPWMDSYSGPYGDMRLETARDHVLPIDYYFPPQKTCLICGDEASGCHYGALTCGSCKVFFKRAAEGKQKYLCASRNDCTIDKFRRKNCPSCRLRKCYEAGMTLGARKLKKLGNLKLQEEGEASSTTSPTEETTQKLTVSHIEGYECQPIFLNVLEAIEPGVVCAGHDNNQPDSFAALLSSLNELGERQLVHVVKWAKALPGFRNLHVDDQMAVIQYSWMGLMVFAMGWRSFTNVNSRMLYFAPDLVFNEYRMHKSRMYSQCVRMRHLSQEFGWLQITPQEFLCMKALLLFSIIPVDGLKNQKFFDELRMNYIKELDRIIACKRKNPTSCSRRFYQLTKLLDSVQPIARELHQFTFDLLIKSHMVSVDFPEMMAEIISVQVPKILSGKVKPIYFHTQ
# CYP2B6: Cytochrome P450 2B6 (CYP2B6, Homo sapiens, UniProt P20813)
# UniProt P20813, sequence (whole entry, looked up): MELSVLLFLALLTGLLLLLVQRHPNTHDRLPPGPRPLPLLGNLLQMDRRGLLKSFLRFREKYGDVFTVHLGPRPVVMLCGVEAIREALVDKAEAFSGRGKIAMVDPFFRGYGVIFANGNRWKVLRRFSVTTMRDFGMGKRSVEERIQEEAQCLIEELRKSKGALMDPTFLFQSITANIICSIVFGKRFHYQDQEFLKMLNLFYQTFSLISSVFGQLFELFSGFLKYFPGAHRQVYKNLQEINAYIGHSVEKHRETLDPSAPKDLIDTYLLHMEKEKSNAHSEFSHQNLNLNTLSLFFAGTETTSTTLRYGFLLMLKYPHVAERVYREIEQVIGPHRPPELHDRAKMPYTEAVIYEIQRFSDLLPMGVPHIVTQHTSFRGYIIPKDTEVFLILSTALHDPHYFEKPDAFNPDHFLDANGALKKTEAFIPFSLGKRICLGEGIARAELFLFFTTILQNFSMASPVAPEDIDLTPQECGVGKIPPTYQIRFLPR
# ALK: ALK tyrosine kinase receptor (ALK, Homo sapiens, UniProt Q9UM73)
# UniProt Q9UM73, sequence (whole entry, looked up): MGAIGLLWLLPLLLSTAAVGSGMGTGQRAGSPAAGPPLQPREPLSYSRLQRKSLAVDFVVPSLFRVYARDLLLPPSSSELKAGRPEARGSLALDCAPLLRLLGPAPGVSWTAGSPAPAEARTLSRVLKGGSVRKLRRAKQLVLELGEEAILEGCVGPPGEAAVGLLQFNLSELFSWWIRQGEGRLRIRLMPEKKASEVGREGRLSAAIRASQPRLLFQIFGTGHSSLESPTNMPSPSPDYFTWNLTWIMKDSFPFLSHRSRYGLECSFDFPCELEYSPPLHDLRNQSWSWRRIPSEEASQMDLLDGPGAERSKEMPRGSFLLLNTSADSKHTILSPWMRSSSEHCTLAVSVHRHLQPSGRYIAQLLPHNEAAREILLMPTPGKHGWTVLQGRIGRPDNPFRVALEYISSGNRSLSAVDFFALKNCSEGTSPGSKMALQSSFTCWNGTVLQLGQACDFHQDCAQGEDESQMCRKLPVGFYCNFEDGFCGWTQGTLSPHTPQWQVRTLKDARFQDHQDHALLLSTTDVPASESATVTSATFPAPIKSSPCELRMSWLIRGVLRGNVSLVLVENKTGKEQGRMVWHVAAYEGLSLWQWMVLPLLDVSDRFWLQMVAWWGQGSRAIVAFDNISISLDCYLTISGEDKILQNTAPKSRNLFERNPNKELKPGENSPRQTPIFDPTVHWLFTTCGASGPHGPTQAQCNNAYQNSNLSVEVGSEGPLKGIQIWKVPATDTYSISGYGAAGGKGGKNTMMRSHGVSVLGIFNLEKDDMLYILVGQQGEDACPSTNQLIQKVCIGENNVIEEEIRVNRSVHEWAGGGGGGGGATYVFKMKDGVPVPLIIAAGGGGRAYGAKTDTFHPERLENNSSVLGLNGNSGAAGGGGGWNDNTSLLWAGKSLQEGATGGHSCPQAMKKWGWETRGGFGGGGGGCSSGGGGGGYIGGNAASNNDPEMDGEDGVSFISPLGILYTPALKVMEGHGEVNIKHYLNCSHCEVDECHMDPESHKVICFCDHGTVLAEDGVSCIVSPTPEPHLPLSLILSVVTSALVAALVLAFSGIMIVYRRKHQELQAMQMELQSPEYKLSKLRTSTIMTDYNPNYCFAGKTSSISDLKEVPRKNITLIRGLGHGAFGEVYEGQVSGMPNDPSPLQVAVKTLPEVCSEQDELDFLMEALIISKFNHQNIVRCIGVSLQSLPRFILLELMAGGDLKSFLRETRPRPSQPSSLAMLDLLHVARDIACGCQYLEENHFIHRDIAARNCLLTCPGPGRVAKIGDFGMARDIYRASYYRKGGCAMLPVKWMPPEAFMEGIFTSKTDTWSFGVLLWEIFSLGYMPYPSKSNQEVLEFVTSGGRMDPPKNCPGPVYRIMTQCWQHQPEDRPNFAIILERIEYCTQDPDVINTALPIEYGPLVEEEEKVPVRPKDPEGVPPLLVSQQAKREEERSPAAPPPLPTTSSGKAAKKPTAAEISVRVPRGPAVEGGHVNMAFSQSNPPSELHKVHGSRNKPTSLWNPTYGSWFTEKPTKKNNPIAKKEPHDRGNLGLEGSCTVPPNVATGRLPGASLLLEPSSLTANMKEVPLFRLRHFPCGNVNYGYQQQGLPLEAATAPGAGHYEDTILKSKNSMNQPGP
# DRD3: D(3) dopamine receptor (DRD3, Homo sapiens, UniProt P35462)
# UniProt P35462, sequence (whole entry, looked up): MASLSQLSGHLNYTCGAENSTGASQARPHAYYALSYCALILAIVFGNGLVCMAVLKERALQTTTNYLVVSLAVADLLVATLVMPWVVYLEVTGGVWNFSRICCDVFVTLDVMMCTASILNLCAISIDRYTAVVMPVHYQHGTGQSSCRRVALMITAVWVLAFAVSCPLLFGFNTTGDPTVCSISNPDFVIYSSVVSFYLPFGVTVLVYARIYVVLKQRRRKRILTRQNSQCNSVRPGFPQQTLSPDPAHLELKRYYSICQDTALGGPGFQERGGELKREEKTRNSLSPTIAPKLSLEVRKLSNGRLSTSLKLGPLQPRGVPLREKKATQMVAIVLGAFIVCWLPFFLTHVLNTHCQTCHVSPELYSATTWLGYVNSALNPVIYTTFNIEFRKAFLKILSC
# FAP: Prolyl endopeptidase FAP (FAP, Homo sapiens, UniProt Q12884)
# UniProt Q12884, sequence (whole entry, looked up): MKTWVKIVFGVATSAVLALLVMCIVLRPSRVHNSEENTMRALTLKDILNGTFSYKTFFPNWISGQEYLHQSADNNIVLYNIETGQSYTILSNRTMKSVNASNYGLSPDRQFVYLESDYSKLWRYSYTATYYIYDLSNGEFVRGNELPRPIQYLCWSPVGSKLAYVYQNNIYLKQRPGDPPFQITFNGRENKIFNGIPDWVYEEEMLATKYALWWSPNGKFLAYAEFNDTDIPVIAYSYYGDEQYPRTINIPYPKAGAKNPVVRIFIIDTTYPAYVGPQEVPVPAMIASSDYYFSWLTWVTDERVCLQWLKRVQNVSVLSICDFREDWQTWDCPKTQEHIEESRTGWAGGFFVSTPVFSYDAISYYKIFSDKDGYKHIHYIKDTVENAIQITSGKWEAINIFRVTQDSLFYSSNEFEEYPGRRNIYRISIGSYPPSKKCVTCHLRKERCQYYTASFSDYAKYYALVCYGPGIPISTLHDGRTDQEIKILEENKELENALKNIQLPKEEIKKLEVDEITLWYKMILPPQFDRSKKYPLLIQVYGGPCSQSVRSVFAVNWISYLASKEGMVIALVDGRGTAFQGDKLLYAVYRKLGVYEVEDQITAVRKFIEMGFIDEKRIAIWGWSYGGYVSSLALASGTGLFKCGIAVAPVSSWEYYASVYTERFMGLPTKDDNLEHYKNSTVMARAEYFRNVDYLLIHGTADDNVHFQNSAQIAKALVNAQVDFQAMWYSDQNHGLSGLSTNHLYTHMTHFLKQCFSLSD
SMILES,target,assay,test system,setting,IC50 [µM]
COc1cc(Cl)ccc1C1=CN(c2ccc(-c3ccccc3OC)cc2)C2=NCCCN12,"ALDH1B1 (Homo sapiens, UniProt P30837)","enzyme activity, inhibitor",,,0.016
COc1cc(C(=O)N[C@H](c2ccccc2)c2ccc3[nH]cnc3c2)c2ccccc2n1,"PLA2G4A (Homo sapiens, UniProt P47712)","enzyme activity, inhibitor, fluorescence",,,2.32
OC[C@@H]1[C@@H](O)[C@H](O)[C@@H](O)CN1CCCCCOCc1ccc(-c2cc(C(F)(F)F)cc(C(F)(F)F)c2)cc1,Ugcg,"enzyme activity, inhibitor, fluorescence",,,0.02
CCCCN(CC)CCCNC(=S)Nc1ccc2nc(N3CCN(C)CC3)cc(C)c2c1,RAD52,D-loop formation,,added: RAD52 450 nM,14.8 ± 2.47
Fc1ccc(Nc2nc(NC3CCCCC3)c3cc(C(F)(F)F)ccc3n2)cc1F,"ADRB2 (Homo sapiens, UniProt P07550, I159A)","β-arrestin2 recruitment, antagonist, BRET",HEK293,"mutant I159A, added: isoprenaline 1 µM",0.2
OC[C@H]1N[C@H](CCCCCCOCC23CC4CC(CC(C4)C2)C3)[C@H](O)[C@@H](O)[C@@H]1O,Ugcg,"enzyme activity, inhibitor, fluorescence",,,50
Cc1nn(-c2cccc(N)c2)c(=O)c2cnc(Nc3ccc(N4CCNCC4)cc3)nc12,"CSNK1G3 (Homo sapiens, UniProt Q9Y6M4)","enzyme activity, inhibitor",,,> 10
COc1cc(O)cc2c1C1(CCC(=O)CC1)CC2,"Si (Rattus norvegicus, UniProt P23739)","enzyme activity, inhibitor, absorbance",,,1540
CC(C)COCCCCCN1C[C@H](O)[C@@H](O)[C@H](O)[C@H]1CO,Ugcg,"enzyme activity, inhibitor",RAW264.7,"in situ, added: C6-NBD-ceramide",4
Cc1cc(C)nc(NC(=S)N2CCN(Cc3ccc(C(F)(F)F)cc3)CC2)c1,"GPD1 (Homo sapiens, UniProt P21695)","enzyme activity, inhibitor",,,> 100
OC[C@@H]1[C@@H](O)[C@H](O)[C@@H](O)CN1CCCCCOCc1ccc(-c2ccccc2)cc1C(F)(F)F,Ugcg,"enzyme activity, inhibitor, fluorescence",,,0.025
COCC1CN(C2CCN(c3cc(OC)c(Nc4ncc(Br)c(Nc5ccc6c(c5P(C)(C)=O)OCCO6)n4)cc3C)CC2)C1,"EGFR (Homo sapiens, UniProt P00533, C797S/L858R)","enzyme activity, inhibitor, TR-FRET",,,0.00092
Cc1ccc(C(=O)c2oc3ccc(Cl)cc3c2NC(=O)CN2CCN(C)CC2)cc1,RAD52,D-loop formation,,added: RAD52 450 nM,17.6 ± 0.78
CC(=O)OC[C@H](COc1ccc(C(C)(C)c2ccc(OC[C@@H](CCl)OC(C)=O)cc2)cc1)OC(C)=O,AR,"antagonist, nuclear translocation",,top concentration 10 µM,> 10
Cc1cc(NC2CCN(C)CC2)ccc1-c1cc2c(N3CCC[C@H](C(=O)NCc4ccc(OC(F)(F)F)cc4)C3)ncnc2[nH]1,"Aurora kinase A (AURKA, Homo sapiens, UniProt O14965)","enzyme activity, inhibitor, mobility shift",,,1.48
CC(C)C[C@H](NC(=O)[C@H](CC(=O)O)NC(=O)[C@H](C)N)C(=O)N1CCC[C@H]1C(=O)N[C@@H](Cc1ccccc1)C(=O)N[C@@H](CCC(=O)O)C(=O)N[C@@H](C)C(N)=O,"Transcriptional regulator PlcR (Bacillus thuringiensis, UniProt A0ACM8Q0N2)","reporter gene, inhibitor, lacZ reporter",407 Cry−,,1.64 ± 0.102
NC(=O)c1ccc(C(=O)NOCc2ccc(Sc3cccc(Cl)c3)c(C(F)(F)F)c2)cc1,CYP2B6,,pooled human liver microsomes,20 min,> 30
CCCCCCCOCCCCCN1C[C@H](O)[C@@H](O)[C@H](O)[C@H]1CO,Ugcg,"enzyme activity, inhibitor, C6-NBD-ceramide in situ",RAW264.7,added: C6-NBD-ceramide,0.3
Cc1[nH]nc2c1N=C(c1ccccc1Cl)c1cnc(N3CCOCC3)cc1N2,CYP2B6,"enzyme activity, inhibitor","human, liver microsomes",,> 10
COc1ccc(Nc2cc(NC3CC3)n3ncc(C#N)c3n2)cc1,"CSNK2A2 (Homo sapiens, UniProt P19784)","target engagement in cells, BRET",,,1
CCCCN(CC)CCNC(=O)c1cc2c(-c3ccc(Cl)cc3)nn(C)c2s1,RAD52,D-loop formation,,added: RAD52 450 nM,10.6 ± 1.4
C=CC(=O)Nc1ccc(OC)c(-c2c[nH]c3ncc(-c4cncc(C(=O)N(C)C)c4)cc23)c1,"ABL1 (Homo sapiens, UniProt P00519)","kinase activity, inhibitor, HTRF",,"1 h preincubation, added: ATP 20 µM",0.621 ± 0.116
O[C@H]1[C@H](O)[C@@H](O)c2[nH]cnc2[C@@H]1O,"GAA (Homo sapiens, UniProt P10253)",,,pH 4.8,> 100
CCN(CC)CC(=O)Nc1cccc(-n2cc(-c3ccc4ccc(-c5cn(-c6cccc(NC(=O)CN(CC)CC)c6)nn5)cc4c3)nn2)c1,ALK,"enzyme activity, inhibitor",,,> 10
OC[C@@H]1[C@@H](O)[C@H](O)[C@@H](O)CN1CCCC/C=C\C12CC3CC(CC(C3)C1)C2,Ugcg,"enzyme activity, inhibitor, fluorescence",,,35.2
Cc1ccc(NS(=O)(=O)c2c(C(=O)N3CCCC3)c(C)n(C)c2C)cc1Cl,DRD3,"Go activation, antagonist, BRET",,added: dopamine,14 ± 3.8
C[C@@H]1Cc2c([nH]c3ccccc23)[C@@H](c2c(F)cc(/C=C/C(=O)O)cc2F)N1C12CC(C1)C2,AR,"antagonist, cell-based",,,> 3
CCCOC(=O)N1c2cc(CNC)ccc2[C@H](NC(=O)C(=O)Nc2ccc(Cl)c(F)c2)[C@H]1CNC(=N)N,"env (Human immunodeficiency virus 1, UniProt Q2N0S5)",HIV-1 infection,Cf2Th-CD4/CCR5 cells,48 h,46.7
COc1ccc(-c2nc(C(=O)NCCCN3CCOCC3)cc3c2[nH]c2ccccc23)cc1OC,RAD52,D-loop formation,,added: RAD52 450 nM,7.2 ± 0.28
O=C(Nc1cccc(CSc2ncccn2)c1)c1ccc([N+](=O)[O-])cc1,"Apelin receptor (APLNR, Homo sapiens, UniProt P35414)","β-arrestin recruitment, antagonist",,,> 100
N#Cc1ccc(-c2ccc(COCCCCCN3C[C@H](O)[C@@H](O)[C@H](O)[C@H]3CO)cc2)cc1,Ugcg,"enzyme activity, inhibitor, fluorescence",,,0.15
Cn1nc(-c2ccc(Cl)cc2)c2cc(C(=O)NCCCN3CCCCCC3)sc21,RAD52,"ssDNA annealing, fluorescence quenching",,,4.1
Cc1cccc(NS(=O)(=O)c2c(C)[nH]c(C)c2C(=O)N2CCCC2)c1,DRD3,"β-arrestin recruitment, antagonist, PathHunter",,added: dopamine EC80,> 100
CC(C)Cc1ccc(C(C)C(=O)NC(CCCCNC(=O)CCOCCOCCOCCOCCOCCOCCNC(=O)CN2CCN(CC(=O)O)CCN(CC(=O)O)CCN(CC(=O)O)CC2)C(=O)Nc2cccc3c(C(=O)NCC(=O)N4CC(F)(F)C[C@H]4C#N)ccnc23)cc1 (stereo partly shown),FAP,"enzyme activity, inhibitor, fluorescence",,,0.00142
CN1CCN(C(=O)c2ccc(-c3cc4nccc(-c5ccc6cnccc6c5)c4o3)cc2)CC1,"IKBKE (Homo sapiens, UniProt Q14164)","enzyme activity, inhibitor",,,0.22
C=CC(=O)Nc1cc(Nc2ncnc(Nc3ccccc3C(C)(C)O)n2)c(OC)cc1N(C)CCN(C)C,"EGFR (Homo sapiens, UniProt P00533)","EGFR phosphorylation, inhibitor",A-431,,0.0063
N#C[C@@H]1CC(F)(F)CN1C(=O)CNC(=O)c1ccnc2ccc(OCCCN3CCN(C(=O)CN4CCN(CC(N)=O)CCN(CC(N)=O)CCN(CC(N)=O)CC4)CC3)cc12,FAP,"enzyme activity, inhibitor, fluorescence",,,0.00681
OC[C@@H]1[C@@H](O)[C@H](O)[C@@H](O)CN1CC(F)(F)CCCOCc1ccc(-c2ccccc2)cc1,Ugcg,"enzyme activity, inhibitor, fluorescence",,,1.25
Cc1[nH]c(C)c(S(=O)(=O)Nc2ccc(F)cc2)c1C(=O)N1CCCC1,DRD3,"Go activation, antagonist, BRET",,added: dopamine,9.7 ± 1.1
CCn1nc(Cl)c2c1-c1cnc(N)c(c1)O[C@H](C)c1cc(F)ccc1-c1nn(C)cc1C2,ALK,"enzyme activity, inhibitor",,added: ATP 1 mM,0.0009
